# Measured values collected from several papers.
# A part holds a random share of what one study measured.

# Study 1 — method: protein binding microarray; molecule type: double-stranded DNA, one strand shown; medium: in vitro; tested at: not given; relative to: not given; direction: higher = stronger binding
# Target: Histone acetyltransferase KAT6A, winged helix 2, GST fusion (KAT6A, Homo sapiens, UniProt Q92794, residues 85-181)
# Notes: 8-mer, flanks averaged, mean of 2 arrays, mostly near background
# Residues (chain): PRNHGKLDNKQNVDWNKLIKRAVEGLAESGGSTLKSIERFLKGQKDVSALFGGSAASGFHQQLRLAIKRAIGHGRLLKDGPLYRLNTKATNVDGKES
Oligonucleotide,E-score
ATAAGTAA,-0.0664
AAAGAGTG,-0.0564
ATTTCTTA,0.0766
CCACTAAC,-0.0914
CTATACGA,-0.11
GGACGGCA,0.19
AAAGTTGA,-0.106
ACAGATAC,-0.0442
ACATATCA,-0.032
CGAGCCAG,0.121
CAGGTCGG,0.123
AATGTCCC,-0.0236
ACTGACTA,-0.156
CGGGAGTA,0.0409
AGGTGATA,-0.124
CACCTCCG,0.178
CGGGGGAG,-0.0235
ACCACAAT,-0.131
GTTACAGA,-0.221
CTTCTTAC,-0.00996
AGCGGCAA,0.17

# Study 2 — method: RNA Bind-n-Seq; molecule type: RNA; medium: in vitro; tested at: 365 nM; relative to: no-protein control; direction: higher = stronger binding
# Target: RNA binding protein fox-1 homolog 2, RRM domain, GST-SBP tag (RBFOX2, Homo sapiens, UniProt O43251-10, residues 100-194)
# Notes: natural RNA segment, single round, ends assumed
# Constant ends, left off below: GGGAGUUCUACAGUCCGACGAUC … UGGAAUUCUCGGGUGCCAA
# Construct (chain): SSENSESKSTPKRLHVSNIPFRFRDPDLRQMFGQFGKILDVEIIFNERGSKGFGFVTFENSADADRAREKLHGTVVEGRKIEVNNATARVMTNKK
Oligonucleotide,RBNS enrichment (R)
UUUAUAUGUGACAAGUGAAAAUUAUAUGAAAUUUAAGAGUCCAUAAAUAAAAUUUGUUGGAACACAACCAGGCUAAUUCAUUUAGUAUUGUGAUAGCUGCUUUCGCGCUA,0.575
GUCGCACUAACGCUCUCGUGGUUGCUCGACUGUUGUAUCUGUGAUACAUUAUCCGACUAAGGACUCUGGGCUGGCAGGGCCUUCUGCCGGGAAAGCUAGAAACACUAGGU,0.22
GUGGUUUGCCCCCCAGGUGUAAUUUUUCUUUUGUUAUUAUUCCUCCUCCUAUUGUGUAUAGGUGUGUAUAUGUGUGUAAAUAUUUCACACAACAACAUCUGUACAAGCAU,0.842
ACUUUUUAAAUCUUAGAGAGAUUCCUACAGAUCUAUAAAGCAUGGAGCCAUUCCUGUAGUGAAGGGGGGGUUAUUAUACCCCAGGGCUUCAGAACUCACAGGACAGGGAU,1.17
GGAAACUAAGAUAAACUUAGUGUAUCUGAGAAGAAUACCUGUCCAUCUUGCUACCCGCUUUUGCCUGACUCAGACUCCAGCUCUCAUACAGCUCUGUCUGCCACACACGU,0.258
AAAGUCAUUCCUUCCUUCCUUCUGUUUCAAGUCAUUGCUGCCAGAUCUGGCUUAAUAAGACUUGGUGUGGCUUAUCAGGUCACAUGUCCACCACAUCUUGAUUCUUGCAG,0.386
GGGAGGGGUGGCAGACAGGAAGAAAACAUGUCCAGGCCCCUGGUCUCCAUAGAGAAUGGUGCUUUGUCCAAGAAAACGUAUGAGUUUCUGAUUCUCCGGGAGCCGUUCAA,0.397
AAUGCCCAGGCUUCUUUGUUAUAGUGGCACGCUGGGUUACUUGCCACACACAGAUCACUCCUCCCAGGGCUGCUGGCACACACUGAUUGUGGGGAGUUCAAGAGGCCUUU,0.582
CUGCCCUUCACUGGCUAAUCCUGUACUUCUCUCUGUGUUCCUUGAGUGACAGGUGGUAAAACCCUUAAAAAGGGAGGUGUGGGAGGCCCAGGACUUUGGUAACAGGUGAU,0.35
AGCAUCUCAGAUGGGGAAGGCACCUUCUUCCUCGCCUCUCCAGAUUGUCCUGGAACCUCCAGGAUCCUUGACUGAGGGCGUUGGGAUGGCUUGUAGGAUUUUUAAGAGAG,0.759
CUGGGGGAGGCCUGCUAUCCUGCCUCUGGGCCACUUGAGGGGCCUCAGGAAGUGUGUGCUUGUGGCUGCAUCUGCCCGUCUCCCUGGCCCACCAUGUGGCUGCAGGCCAA,6.84
UUCUUGCCAUUACUCAGUGUUCCUAUAAAGAAAAUAUUAUGAUAUCUUGGAAAGGUUCUAUUCCUGAUCUCCAGCUGUGGUGAGCAAGUUUCCUGAAGUGUUUAUUUUCU,0.301

# Study 3 — method: RNA Bind-n-Seq; molecule type: RNA; medium: in vitro; tested at: 1 µM; notes: whole 134-nt RNA, ends assumed; together with: 150 mM KCl; relative to: input library; direction: higher = stronger binding
# Target: Ras GTPase-activating protein-binding protein 1, RRM domain (G3BP1, Homo sapiens, UniProt Q13283)
# UniProt Q13283, sequence (whole entry, looked up): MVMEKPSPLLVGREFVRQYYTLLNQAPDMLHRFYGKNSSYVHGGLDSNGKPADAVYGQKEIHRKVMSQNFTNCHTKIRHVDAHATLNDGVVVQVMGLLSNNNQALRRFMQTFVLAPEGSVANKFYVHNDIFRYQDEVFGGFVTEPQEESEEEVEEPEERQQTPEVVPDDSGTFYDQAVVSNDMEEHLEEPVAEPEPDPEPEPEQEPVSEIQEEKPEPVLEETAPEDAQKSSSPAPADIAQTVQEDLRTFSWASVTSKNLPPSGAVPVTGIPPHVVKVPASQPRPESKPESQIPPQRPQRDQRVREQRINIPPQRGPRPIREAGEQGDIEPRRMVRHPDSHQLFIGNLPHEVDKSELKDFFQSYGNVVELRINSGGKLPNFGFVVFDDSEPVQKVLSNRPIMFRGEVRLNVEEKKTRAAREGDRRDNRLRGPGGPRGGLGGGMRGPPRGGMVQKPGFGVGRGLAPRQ
# Constant ends, left off below: GGGAGUUCUACAGUCCGACGAUC … UGGAAUUCUCGGGUGUCAAGG
Oligonucleotide,log2 enrichment
CCUGUGCUACACAUCGUAUGUACCGAAUCGGGGAAAAAAAGGGGAAAAAGGGGUUUGGGGAAAGUAUUAUGUUACGCCGUUCGGAUCUGC,0.783
AAGUCCUGUGCUACACAUCGUAUGUACCGAAUCGGGGUGGGGUUUGGGGUUUGGGGAAAGUAUUAUGUUACGCCGUUCGGAUCUGCACUU,1.12
GUCCUGUGCUACACAUCGUAUGUACCGAAUCGGGGCCCCCGGGGCCCCCGGCCCCCGGAAAGUAUUAUGUUACGCCGUUCGGAUCUGCAC,-0.504
AGUCCUGUGCUACACAUCGUAUGUACCGAAUCGGUUUUUUUGGAAAGGUUUUUUUGGAAAGUAUUAUGUUACGCCGUUCGGAUCUGCACU,-0.376
CCCGAGCCGGAGAGGGAGCGCGAGCCGCGCCGGCCCCGGUCGGGCCUCCGAAACCAUGAACUUUCUGCUGUCUUGGGUGCAUUGGAGCCU,-0.244
UGGGAGGUGGAUUUUGUUUAUUUUUUUAGCUCAUUUCCGGGGGUGGGAAUUUUUUUUUAAUAUGUGUCAUGAAUAAAGUUGUUUUUGAAA,1.29
GAAGGAAGUAAAAACAAAUGGAAAUGCUUCGGAUAGUGGCAGGGGUGGGGGUUGCUAAGGAAAGGGUGGGAUGGGAGUGGGUAAAGAGUU,1.22
UGUGCUACACAUCGUAUGUACCGAAUCGGGAAAAAAAGGGGAAAAAAAGGGGAAAAAAAGGGAAAGUAUUAUGUUACGCCGUUCGGAUCU,0.134
ACCAUGCAGGUGGGCAUCUUUGGGAAGUGGGGCAAGGGGGGGAUAGGGAGGGGGGUAACACUUUGGGAAGAGGUGGUCCCAGGUCGUUUC,0.622
AGUCCUGUGCUACACAUCGUAUGUACCGAAUCGGGUGGGUUUUUUUGGGUUUUUGGGAAAGUAUUAUGUUACGCCGUUCGGAUCUGCACU,0.299
UCAAGUCCUGUGCUACACAUCGUAUGUACCGAAUCGGGGUGGGGAGGGGAGGGGAAAGUAUUAUGUUACGCCGUUCGGAUCUGCACUUCC,1.1
UGGUUAGUCAACUACUUUGGUUCCUUAUCAGUAGAAGACUCCCUAGAAUGUCUCAGAGCCAUGCUGUCUGCCAACAUCCGUCAGAAUCUG,-0.217
ACCAUGCAGGUGGGCAUCUUUGGGAAGUGGGGCAAGGGGGGGAUAGGGAGGGGGGUAACACUUUGGGAACAGAUGGUCCCAGGUCGUUUC,1.05
CAAGUCCUGUGCUACACAUCGUAUGUACCGAAUCGGGGUUUGGGUUUGGGGUUUGGAAAGUAUUAUGUUACGCCGUUCGGAUCUGCACUU,-0.558

# Study 4 — method: RNA Bind-n-Seq; molecule type: RNA; medium: in vitro; tested at: not given; relative to: input RNA pool; direction: higher = stronger binding
# Target: RING finger protein unkempt homolog, zinc fingers 1-6, GST-SBP tag (UNK, Homo sapiens, UniProt Q9C0B0, residues 30-357)
# Notes: RNA with constant flanks, human and mouse sites, ends assumed
# Constant ends, left off below: GGGAGUUCUACAGUCCGACGAUC … CAACAGAGGAUUGAGCAUCA
# Residues (chain): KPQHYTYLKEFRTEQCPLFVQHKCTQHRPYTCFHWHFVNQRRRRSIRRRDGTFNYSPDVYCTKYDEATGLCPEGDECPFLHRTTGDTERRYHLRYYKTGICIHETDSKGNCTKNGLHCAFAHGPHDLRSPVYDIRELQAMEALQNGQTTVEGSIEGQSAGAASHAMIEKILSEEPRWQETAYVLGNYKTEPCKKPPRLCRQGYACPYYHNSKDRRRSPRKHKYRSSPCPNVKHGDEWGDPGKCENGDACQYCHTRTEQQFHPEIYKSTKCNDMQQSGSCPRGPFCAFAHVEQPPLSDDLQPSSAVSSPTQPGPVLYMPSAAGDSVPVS
Oligonucleotide,bound/input enrichment
GACAUUUGGACCUUGUUGGGAACAGUGCUUUAUCCAUUCCUUGCCAUCUGGAGAUUAAUUAGCAAUUUCUUGUUUAGUAAUCCGCCUCCCACACAGACUUCAGUGAGAGUAACAUCGUCA,3.57 ratio
CCAAAGAAACUCCAUUUAUGUCCCUUGUGUGGCAAAAAUUUCUCUAACAACUCAAACCUAAUUAGGCACCAGAGAAUACAUGCAGCUGAAAGACUGUGUAUGGGUGUGGACUGCACUGAA,0.276 ratio
CGUGGAGAUGCAGACCAGGCCAGUAACAUUUUGGCCAGCUUUGGUCUGUCUGCUAGAGACUUAGAUGAACUGAGUCGUUAUCCAGAGGACAAGAUUACUCCUGAGAAUUUGCCCCAAAUC,0.056 ratio
CUUACAACAUCAAAGCAUGCUGAGCCCCCAUACAGGAUACCAAGUGACCAGGUCUUUCCUAUAGCUAGGGAAGAAGCACCAAUAAACUUAUCUCUAGGUACUCCAGCACAUGCAGUGACA,0.143 ratio
GCUCAGUUGCUUACAGGUUUGUGACAAGAAGUGAGAACAUUUUGGAGAAGGCAACAACAUACCUAAUACUUUGUUUUCACUGAUUUAUAAACAUUAUACAUUAACCAUCACGACUGUAUG,0.152 ratio
GAGGUUCCUGCGGACUAGCGGUGGCUUCGCGUGGGUGGAGGAGGCGCGGCUGCAGUCUUUAAGAAAUAGAAAUGGCUUCCAAAAGAGCUCUGGUCAUCCUGGCCAAAGGAGCAGAGGAGA,0.234 ratio
AAAGAAAAUGGAGAUGUAAAGAUUUUACUGAAAAGUGGGAAGGAGAAACCAAAAACAAAUAUAGAAGACUUACAAAUUAAAAAAGUAAAGAAGAAAAAGAAAAAGAAACACAAAGAGAAU,14.6 ratio
AAUAUCAUCCCUAGUACUUUUUUGCCUAAACAAGAAGGACCUUUUUUCUUGGACUUUAAUAGUACUGUCCCCAUCAAGACAACACAACUCCAAUGAUUGAGAACUCUCAGCUAUUACUGG,0.564 ratio
GAAAGAAGCAGCAGCCCACCUUCUUUGUGUUUGCACAUGUGCCUAUGUCGUGUACAUUGGUACCUGACUGUGGCUCAGAUCUGCGUCGCAGCAGCGAGAGAAGAAAUCACUCCAUAUCCG,0.149 ratio
AUGGCUUCUCUGGACGACCCAGGGGAAGUGAGGGAGGGCUUCCUCUGCCCUCUGUGCCUGAAGGAUCUGCAGUCUUUCUAUCAGCUUCACUCACAUUACGAGGAAGAACACUCAGGGGAA,0.16 ratio
GCACCCAGGUCCUAUAGGAUAGCACCUAGGCCAUACAGGUUAGCACCUAGACCCUUGAUGUUAGCAUCUAGACGUUCUAUGAUGAUGUCCUAUGCUGCAGAACGUUCCAUGAUGUCAUCU,0.193 ratio

# Repeated from above (study 3):
Oligonucleotide,log2 enrichment
CCCGAGCCGGAGAGGGAGCGCGAGCCGCGCCGGCCCCGGUCGGGCCUCCGAAACCAUGAACUUUCUGCUGUCUUGGGUGCAUUGGAGCCU,-0.244
UGGGAGGUGGAUUUUGUUUAUUUUUUUAGCUCAUUUCCGGGGGUGGGAAUUUUUUUUUAAUAUGUGUCAUGAAUAAAGUUGUUUUUGAAA,1.29
GAAGGAAGUAAAAACAAAUGGAAAUGCUUCGGAUAGUGGCAGGGGUGGGGGUUGCUAAGGAAAGGGUGGGAUGGGAGUGGGUAAAGAGUU,1.22
UGUGCUACACAUCGUAUGUACCGAAUCGGGAAAAAAAGGGGAAAAAAAGGGGAAAAAAAGGGAAAGUAUUAUGUUACGCCGUUCGGAUCU,0.134
ACCAUGCAGGUGGGCAUCUUUGGGAAGUGGGGCAAGGGGGGGAUAGGGAGGGGGGUAACACUUUGGGAAGAGGUGGUCCCAGGUCGUUUC,0.622
AGUCCUGUGCUACACAUCGUAUGUACCGAAUCGGGUGGGUUUUUUUGGGUUUUUGGGAAAGUAUUAUGUUACGCCGUUCGGAUCUGCACU,0.299
UCAAGUCCUGUGCUACACAUCGUAUGUACCGAAUCGGGGUGGGGAGGGGAGGGGAAAGUAUUAUGUUACGCCGUUCGGAUCUGCACUUCC,1.1
UGGUUAGUCAACUACUUUGGUUCCUUAUCAGUAGAAGACUCCCUAGAAUGUCUCAGAGCCAUGCUGUCUGCCAACAUCCGUCAGAAUCUG,-0.217
ACCAUGCAGGUGGGCAUCUUUGGGAAGUGGGGCAAGGGGGGGAUAGGGAGGGGGGUAACACUUUGGGAACAGAUGGUCCCAGGUCGUUUC,1.05
